Assay results collected from several papers.
Every numbered part comes from another study and shows a few of its results, in no order.
Chain of UniProt P42680 (whole entry, looked up): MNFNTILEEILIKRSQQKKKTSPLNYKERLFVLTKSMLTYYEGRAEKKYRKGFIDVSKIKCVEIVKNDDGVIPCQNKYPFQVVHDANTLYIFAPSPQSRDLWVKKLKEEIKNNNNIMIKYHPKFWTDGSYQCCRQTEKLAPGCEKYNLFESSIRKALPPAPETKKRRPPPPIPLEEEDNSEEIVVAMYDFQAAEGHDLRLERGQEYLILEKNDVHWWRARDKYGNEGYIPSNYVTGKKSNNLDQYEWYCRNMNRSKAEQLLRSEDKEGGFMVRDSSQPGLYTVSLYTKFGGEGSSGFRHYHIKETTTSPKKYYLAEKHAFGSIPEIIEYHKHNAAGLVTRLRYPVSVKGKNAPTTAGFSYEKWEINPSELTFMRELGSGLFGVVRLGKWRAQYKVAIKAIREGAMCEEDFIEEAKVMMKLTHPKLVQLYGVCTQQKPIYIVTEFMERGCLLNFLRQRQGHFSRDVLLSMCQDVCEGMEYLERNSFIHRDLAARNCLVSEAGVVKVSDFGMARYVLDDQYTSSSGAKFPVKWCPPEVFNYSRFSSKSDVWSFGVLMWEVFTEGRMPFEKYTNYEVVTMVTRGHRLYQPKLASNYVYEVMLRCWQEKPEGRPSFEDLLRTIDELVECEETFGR

Block 1
Target: Sal-like protein 4, full length isoform B (SALL4, Homo sapiens, UniProt Q9UJQ4-2, residues 1-616)
Method: universal PBM
Molecule type: double-stranded DNA, one strand shown
Matrix: in vitro
Concentration: not given
Setting: 8-mer, flanks averaged, mean of replicates
Direction: higher = stronger binding
Quantity: E-score
Strand = AGTATGCC; result = -0.0345
Strand = AAGTTCGA; result = 0.0422
Strand = GAAGTTAA; result = 0.0973
Strand = AATGGGCC; result = -0.314
Strand = CACACGAG; result = -0.214
Strand = GCTGGCCC; result = -0.378
Strand = TAAGCACA; result = 0.0582
Strand = ATGTAACA; result = 0.31

Block 2
Target: Prothrombin, mature alpha-thrombin (F2, Homo sapiens, UniProt P00734)
Method: aptamer microarray, sandwich
Molecule type: DNA with 2'F-ANA
Matrix: in vitro
Concentration: 200 nM
Setting: whole 15-mer aptamer, many near background
With: Cy3 exosite-II aptamer, 400 nM
Direction: higher = stronger binding
Quantity: mean fluorescence intensity
Strand: GGTTGGTGTGGTTGG
Modification = 2'F-ANA at 1 2 4 7 10; result = 53.9 a.u.
Modification = 2'F-ANA at 2 3 4 6 7 8 11 12; result = 816 a.u.
Modification = 2'F-ANA at 1 8 11 13; result = 199 a.u.
Modification = 2'F-ANA at 1 3 4 5 7 8 11 12 13 14; result = 46.2 a.u.
Modification = 2'F-ANA at 1 2 4 6 7 12 14; result = 57.6 a.u.
Modification = 2'F-ANA at 1 2 3 4 6 9 11 14 15; result = 55.9 a.u.
Modification = 2'F-ANA at 2 3 4 5 7 8 10 12 13; result = 49.9 a.u.
Modification = 2'F-ANA at 7 9 11 12 15; result = 615 a.u.

Further values, each from its own experiment
Molecule = PhoQ, residues 284 288 289 292 302 303 DDMDFR; target = PhoP, residues 12 14 15 18 19 QQAYL (Escherichia coli, UniProt P23836); test = Sort-seq, refers to: YFP reporter; test system = E. coli; conditions = PhoQ-PhoP variant library, with: 10 µM Mg2+; scale = reference: high Mg2+ state, higher = stronger signaling; quantity = fold induction; result = 0.697
Molecule = CC[n+]1c(/C=C/N(C)c2ccccc2)n(-c2ccccc2)c2ccc(-c3nc4ccccc4s3)cc21; target = TEC (Homo sapiens, UniProt P42680); test = enzyme activity, inhibitor; conditions = 0.5 µM; scale = reference: control; quantity = remaining activity; result = 161%
